Published values pooled from the literature.
A part holds a random share of what one study measured. Positions count from the first letter of the parent shown.

Sample 1
Target: ABI1, truncated, D143A, DHFR fusion (Arabidopsis thaliana)
Method: DHFR PCA, deep sequencing
Sample: yeast
Setting: methotrexate growth selection, single substitutions
Added: (+)-ABA 1.4 µM
Relative to: wild-type fitted maximum
Direction: higher = stronger binding
Parent: PYL1, truncated, DHFR fusion (Arabidopsis thaliana); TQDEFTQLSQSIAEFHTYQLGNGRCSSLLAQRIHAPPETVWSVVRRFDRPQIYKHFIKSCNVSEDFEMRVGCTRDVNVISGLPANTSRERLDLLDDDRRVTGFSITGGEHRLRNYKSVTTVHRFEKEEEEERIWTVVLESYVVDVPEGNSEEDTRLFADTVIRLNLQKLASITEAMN
Change	relative binding score [%]
R69S	43.7
T101W	-10.6
V143H	-0.695
L29A	2.34
Y53G	-5.36
F47E	-3.19
T39Y	20.6
W41K	-17.1
T135Q	-11.7
R32D	-3.87
E147P	48.8
T160G	0.133
V76N	-6.38
W134N	40.7
P37R	-1.4
Q31K	42.5
S9L	42.4
L138K	-9.79
E139T	74.2
L112K	2.44
E89G	4.77
I105F	-6.79
E131P	84.4

Sample 2
Target: RNA binding protein fox-1 homolog 2, RRM domain, GST-SBP tag (RBFOX2, Homo sapiens, UniProt O43251-10, residues 100-194)
Method: RNA Bind-n-Seq
Form: RNA
Sample: in vitro
Tested at: 365 nM
Setting: natural RNA segment, single round, ends assumed
Relative to: no-protein control
Direction: higher = stronger binding
Shared flanks, not repeated: GGGAGUUCUACAGUCCGACGAUC … UGGAAUUCUCGGGUGCCAA
Target sequence (chain): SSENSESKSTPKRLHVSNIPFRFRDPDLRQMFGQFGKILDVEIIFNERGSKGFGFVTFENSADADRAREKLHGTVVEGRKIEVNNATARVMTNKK
Strand	RBNS enrichment (R)
GGGUCUGAGGGUUCCAGCGUAAAUGCCUGCCCUGCAGCGCCUGGCAACUGGCAAGCAUCGGGUCUGAGGGACUACACAGGGCGCAGCACAAGGCGCUCAUGGGUUUCAGG	0.471
CUAAACCCUAAUGGGAUGAGGCUUUUCACCCCAGGCCAUGCUGGUGGUGAUUUUUUAGCCCCUAAAUAAAACACUGGACUAUUUCCUGUUUACUUCAUUGAUUGCAACUA	0.368
AUUUGUAACUGGCAGACUCUGGUUCCAUUGUAUUUGUUUCAAAAUGUGUUUUUGUUUGUUUGUUUGUUUCAGGAGCAAUCGGUUACAUGGGAACAAGUGCCUUUGUUCGA	2.26
UAACCUUAGUUAGAGCCUACCUUUUGCAGUUUCUAAAUUGCUAUUAUAGUGUACAGUUCAAUUAGUAUAUGGGUUUUUUUUUCCAGGUGUUUUAUUUUUAUCCACUGUUU	0.503
GUUUUCUUGAAAAGCCUUUCUCUUCCAACCAUGAAUGAACACAAACCACCACAAAACAAGCUUUAUUAACACAGGAGCCUAGUGGGGAUUGCGAAACACAGGAAUGUGCA	1.13
AAAAUGUGAGGAAUUACCUGUCAAAUUAGAUUGAGCUCAGAGUAAAUAGAUGAGCACAUUUAUAACUCUAAAUUAGACUUUCUAUCAAAUGGGACCAAACAUAUGGAAGG	0.26
CUGCCUUAAGUGAGUCCCGCCCACUCCCUGCCUCCCUCCGAGGUGGGCGGGAGUUCCUACCCCAUCUCUGCUUCCCCUGGAGGCCGGCCAGCGUUUGUGGGUUGGUUCAG	0.64
UGUAAAAAUAAAAAAAAAAUAUUUUUAGCAGAACAGGACUUACAGGGUCAUUGUCCCCACAAUGUGCCAGUCGACUAUUUGCACUUACCUUGUCCUAUAUAUCCGUACGG	0.381
CCAAAGACACAUUUCUCAGAACGUAGCCCCAUCAUGAAGUGACGUGACUACCAGAGAUUUCUGGAAAAGCACUCCCAAAAGUAAUGAGAUGUGUAUGGCAAUGUUAACUG	0.405
AAAAUAACCUCCAAGGACCCUCUGACCCCAUCGACCUGGGCCCUGCCCACACAACAGUCUGAGCAAGAGACCUGCAGCCCCUGUUUCGUGGCAGACAGCAGGUGCCUGGC	0.364
GACGGUCUUGCUAAGUAUAUGACUGGGAGAGUUUGGUCAUUUUUGUGUACCCUAUGGUGGGAAUGUGGGGUUGCCUUUCAAAAGCCUUCAGGAUGGCAACAGAUUGGAUG	1.2
AAUGGACCCUUUUGCUUUUCUGAUUUUUAGUUCUGACAUGUAUAUAUUGCUUCAGUAGAGCCACAAUAUGUAUCUUUGCUGUAAAGUGCAAGGAAAUUUUAAAUUCUGGG	0.851

Sample 3
Target: Ras GTPase-activating protein-binding protein 1, full length (G3BP1, Homo sapiens, UniProt Q13283)
Sequence of UniProt Q13283 (whole entry, looked up): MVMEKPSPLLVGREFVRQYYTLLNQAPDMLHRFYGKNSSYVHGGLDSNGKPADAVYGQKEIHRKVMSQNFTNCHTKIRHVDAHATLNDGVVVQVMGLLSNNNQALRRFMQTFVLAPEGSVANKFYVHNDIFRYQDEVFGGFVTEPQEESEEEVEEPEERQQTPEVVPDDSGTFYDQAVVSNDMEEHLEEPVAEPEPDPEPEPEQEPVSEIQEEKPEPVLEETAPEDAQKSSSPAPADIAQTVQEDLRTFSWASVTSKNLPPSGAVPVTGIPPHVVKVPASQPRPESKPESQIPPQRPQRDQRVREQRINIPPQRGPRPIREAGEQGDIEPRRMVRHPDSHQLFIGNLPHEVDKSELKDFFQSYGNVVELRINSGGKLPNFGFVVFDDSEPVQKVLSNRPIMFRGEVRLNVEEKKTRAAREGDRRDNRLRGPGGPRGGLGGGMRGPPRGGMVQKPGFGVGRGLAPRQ
Method: RNA Bind-n-Seq
Form: RNA
Sample: in vitro
Tested at: 200 nM
Setting: whole 134-nt RNA, ends assumed
Added: 150 mM LiCl
Relative to: input library
Direction: higher = stronger binding
Library: 7-deaza-guanosine replaces G
Shared flanks, not repeated: GGGAGUUCUACAGUCCGACGAUC … UGGAAUUCUCGGGUGUCAAGG
Strand	log2 enrichment
AGUCCUGUGCUACACAUCGUAUGUACCGAAUCAAACCCAAACCCCCAAACCCCCAAAAAAGUAUUAUGUUACGCCGUUCGGAUCUGCACU	-0.026
CUCAAGUCCUGUGCUACACAUCGUAUGUACCGAAUCGGAAGGAAGGGGAAGGGGAAAGUAUUAUGUUACGCCGUUCGGAUCUGCACUUCC	0.102
CAAGUCCUGUGCUACACAUCGUAUGUACCGAAUCGGAAAAAAAGGAAAGGAAAGGAAAGUAUUAUGUUACGCCGUUCGGAUCUGCACUUC	-0.662
CAAGUCCUGUGCUACACAUCGUAUGUACCGAAUCGGGGUUUGGGGAGGGGAGGGGAAAGUAUUAUGUUACGCCGUUCGGAUCUGCACUUC	0.496
AGUCCUGUGCUACACAUCGUAUGUACCGAAUCGGGUUUUUGGGUUUUUUUGGGUGGGAAAGUAUUAUGUUACGCCGUUCGGAUCUGCACU	-0.355
GUCCUGUGCUACACAUCGUAUGUACCGAAUCGGGAAAAAAAGGGAAAAAAAGGGUGGGAAAGUAUUAUGUUACGCCGUUCGGAUCUGCAC	-1.33
AGUCCUGUGCUACACAUCGUAUGUACCGAAUCGGGGUUUUUUUGGGGAGGGGAGGGGAAAGUAUUAUGUUACGCCGUUCGGAUCUGCACU	0.771
UUAUUCUGUGUGACACCUGCCCUCGUGCCUACCACCUCGUCUGCCUUGAUCCUGAGCUUGACCGGGCUCCAGAGGGCAAAUGGAGCUGCC	1.21
CAAGUCCUGUGCUACACAUCGUAUGUACCGAAUCGGGUUUGGGUUUUUGGGUGGGAAAGUAUUAUGUUACGCCGUUCGGAUCUGCACUUC	-0.414
AAGGCACGUAAGUUUAAGCUUUUUUUUUUUUUAAGUUAAUGGGAAAAAUUUGAGACGCAAUACCAAUACUUAGGAUUUUGGUCUUGGUGU	0.561
UUAAGGGAAUCUAUUGCUGAACACAAACCUCAUAUUGACAAACUACUAAAGAUAGGCCCACAACUAAAGGAAUUAAACCCUGAGGAAGGG	0.201

Sample 4
Target: Prothrombin, mature alpha-thrombin (F2, Homo sapiens, UniProt P00734)
Method: aptamer microarray, sandwich
Form: DNA with 2'F-ANA
Sample: in vitro
Tested at: 200 nM
Setting: whole 15-mer aptamer, many near background
Added: Cy3 exosite-II aptamer, 400 nM
Direction: higher = stronger binding
Strand: GGTTGGTGTGGTTGG
Modification	mean fluorescence intensity [a.u.]
2'F-ANA at 2 4 6 8 9 10 12 15	104
2'F-ANA at 1 2 3 4 9 10 12 15	78.2
2'F-ANA at 3 4 5 8 11 13	79.8
2'F-ANA at 1 2 6 8 11 13 15	138
2'F-ANA at 1 2 6 7 8 10 12 13 14	51.9
2'F-ANA at 2 3 5 12 14 15	63.8
2'F-ANA at 1 3 4 5 6 7 8 10 11 13 14 15	55.1
2'F-ANA at 2 3 4 5 6 7 8 9 11 12 13	105
2'F-ANA at 1 2 3 5 6 8 11 12 13	78.6
2'F-ANA at 2 3 4 7 9 10 11 13 15	225
2'F-ANA at 1 2 3 6 8 10 11 12 14 15	58.3
2'F-ANA at 1 3 5 6 12 13 14 15	45.2
2'F-ANA at 1 2 5 7 10 13 14 15	68.5
2'F-ANA at 3 5 7 8 11 12	240
2'F-ANA at 1 5 8 9 11 12	97.6
2'F-ANA at 1 2 3 4 5 8 9 10 12 13	46.5
